Results gathered from unrelated publications.
Numbered parts are unrelated; each lists some results of a single study. Positions count from the first letter of the parent shown.

Sample 1 — technique: protein binding microarray; molecule type: double-stranded DNA, one strand shown; sample: in vitro; concentration: not given; reference: not given; reading: higher = stronger binding
Target: Histone acetyltransferase KAT6A, both winged helices, GST fusion (KAT6A, Homo sapiens, UniProt Q92794, residues 1-181)
Notes: 8-mer, flanks averaged, mean of 2 arrays, mostly near background
Construct (chain): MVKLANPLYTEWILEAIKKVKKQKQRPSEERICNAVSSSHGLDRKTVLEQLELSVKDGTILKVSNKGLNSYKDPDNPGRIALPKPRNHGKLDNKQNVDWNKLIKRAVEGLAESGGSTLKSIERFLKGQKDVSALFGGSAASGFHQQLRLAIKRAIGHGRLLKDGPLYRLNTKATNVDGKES
Strand | E-score
CAAGGATG | -0.123
CTATCGGA | 0.121
ATCAGGTC | -0.0218
GCCTATAC | -0.107
GACTCCTA | -0.233
GTGGACTA | -0.115
ACTTAATG | -0.0728
GGAATGGA | 0.0326
CATTGTAA | -0.0815
CAGCGGGA | 0.236
AGCTAATG | -0.188
GCTCTGAC | -0.0103
CCACAGAG | -0.273
TTAAGCAA | -0.00468
CAGTGAAG | -0.0644
CGTGAGAG | 0.00686
CCGATAAC | 0.121
TCACAACA | 0.101
AGAGCGAC | 0.0899
CCGGCGCG | 0.361
ACAAGATG | -0.134
AGGCTACT | -0.215
AGAGACTG | -0.0934
CTCGGCTA | 0.192
GACCAAAC | -0.0722

Sample 2 — organism: Saccharomyces cerevisiae; read-out: binding; technique: yeast competitive growth sequencing; molecule type: peptide; strain: cyclin B3-Cln2 fusion strain; notes: peptide tiling library; reading: direction not given
Sequence | enrichment score
TARRIFQEPTEPKTKA | -0.803
PARRRLRLSVDEVSSP | -0.719
KPKPVKPVTFSTGIKM | 0.878
PKRAKRKLYTSEISSP | -1.37
VLVRTSACRSLFGPVD | -0.68
SMTDFYHSKRRLIFSK | -1.99
PAKRRLELGE | 0.421
PKNAKRNLSSEFAN | -0.268
SSEVARHLLFQSHM | -1.05
IVLICAKRSLCAAFSV | -1.71

Sample 3 — technique: competition protein-binding microarray; molecule type: double-stranded DNA, one strand shown; sample: in vitro; concentration: 2 µM; added: Cbf1 competitor, 0.05 µM; reading: higher = stronger binding; constant ends, left off below: … GTCTTGATTCGCTTGACGCTGCTG
Target: Phosphate system positive regulatory protein PHO4, full length, GST-tagged (PHO4, Saccharomyces cerevisiae, UniProt P07270, residues 1-312)
Notes: whole 60-bp probe, lowest competitor level
Residues (chain): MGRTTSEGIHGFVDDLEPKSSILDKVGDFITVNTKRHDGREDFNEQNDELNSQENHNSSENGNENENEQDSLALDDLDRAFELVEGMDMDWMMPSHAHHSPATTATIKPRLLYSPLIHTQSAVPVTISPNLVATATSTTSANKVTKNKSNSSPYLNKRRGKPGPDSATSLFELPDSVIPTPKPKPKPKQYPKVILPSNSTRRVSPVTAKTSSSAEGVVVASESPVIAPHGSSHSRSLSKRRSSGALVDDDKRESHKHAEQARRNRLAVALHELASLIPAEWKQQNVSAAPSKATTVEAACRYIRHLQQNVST
Strand | fluorescence intensity [a.u.]
GGATGGGACACCAACAACGTGCAAAACACCGAAGTG | 14200
TGAGTTGATAGATCGCACGCTCTCGCCGATATAAGC | 8380
GTCTTGTCTCATTGTAACGTGGGTGTCCCCACTTCA | 9310
CGGGGTTAAGTTTGAGAGGTGGGTGGCTTGCAGCAG | 4460
CATACCCAACCTTGTCACACTACTTAAGATATTTGT | 4860
AAATTACTAAGTTTTCACGTGCTGTACCCCGTATGA | 15800
ATTCAACTTTGCTTCCACGTTAGTAGACAGTGGACC | 7050
CTTTCCCGATCTTGTCACATTACTTTAGCACATTTG | 4620
AGCAACCAAAGTACCCACGTGATTGTCTCCTGCCAA | 16600
AATCCGCGTAGCCATCACGTCGCGCAATGTGCGATA | 6470
CTAACGAAGGTTTGCACCGTGGGTGACAAGCCAAGT | 8420
GGCGGGAGGGAGCCGCATGTGCTCTATTACTTTCTT | 11000
AATCTCAGGTTTCGTCACGTTCTGGTGATGACTGTA | 12200
TTGTCGGCATAACCGCACATGGACGTCTATATGACC | 9200
CAGGCAAAAGCGTTACACGTGACGGTGGTATGATCG | 14000
AAAGCGGTAATTTGTCACAATACTTCACATATCTAT | 3350
AAAGCGGTAATTTGTCATGTGGGTGCAGATATCTAT | 9810
TTTTTTTGGCTCCATCACGCTCGTCAGTTGAGCTCG | 4670
GAGCCGTCCCGCAATCACCTGTAATGGCCAGTTCCC | 2800
CTTCCCAGGCCCACCAACGTGCGATCCCCGCTATGT | 11300
GCAGGTATGTTTTTCACCGTGAAGATGGACGCATCT | 3420
TAGGGCTACCTTTGTCATGCCCAGGAAAACCGGATT | 3070
GGCCTTCAGGCTTTGCACGCTAGCACACACCTTGGC | 6960
AAATTACTAAGTTGACCCGTGGGTGACGCCGTATGA | 9170
ACTGTAGAAAGAGAAAGTGTGGTAAAACCAACCAAT | 4770

Sample 4 — technique: DHFR PCA, deep sequencing; sample: yeast; added: (+)-ABA 0.0091 µM; reference: wild-type fitted maximum; reading: higher = stronger binding
Target: ABI1, truncated, D143A, DHFR fusion (Arabidopsis thaliana)
Notes: methotrexate growth selection, single substitutions
Starting sequence: PYL1, truncated, DHFR fusion (Arabidopsis thaliana); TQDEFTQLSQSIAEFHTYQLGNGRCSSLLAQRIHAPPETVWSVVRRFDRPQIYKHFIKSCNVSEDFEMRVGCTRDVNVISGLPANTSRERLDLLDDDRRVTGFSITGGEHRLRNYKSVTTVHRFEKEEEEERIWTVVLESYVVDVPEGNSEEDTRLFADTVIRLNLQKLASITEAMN
Change | relative binding score [%]
D3K | 18.5
E109T | 7.2
R113S | 10.6
R90F | 1.13
Q31E | -2.35
H34G | 4.02
G148S | 1.54
K58G | -1.04
S87M | 38.4
N61L | 23.6
A35S | -1.58
S117L | -1.54
V44H | 1.51
T120C | -7.17

Sample 5 — technique: RNA Bind-n-Seq; molecule type: RNA; sample: in vitro; concentration: not given; reference: input RNA pool; reading: higher = stronger binding
Target: RING finger protein unkempt homolog, zinc fingers 1-6, GST-SBP tag (UNK, Homo sapiens, UniProt Q9C0B0, residues 30-357)
Notes: RNA with constant flanks, human-mouse chimeric sites, ends assumed
Constant ends, left off below: GGGAGUUCUACAGUCCGACGAUC … CAACAGAGGAUUGAGCAUCA
Residues (chain): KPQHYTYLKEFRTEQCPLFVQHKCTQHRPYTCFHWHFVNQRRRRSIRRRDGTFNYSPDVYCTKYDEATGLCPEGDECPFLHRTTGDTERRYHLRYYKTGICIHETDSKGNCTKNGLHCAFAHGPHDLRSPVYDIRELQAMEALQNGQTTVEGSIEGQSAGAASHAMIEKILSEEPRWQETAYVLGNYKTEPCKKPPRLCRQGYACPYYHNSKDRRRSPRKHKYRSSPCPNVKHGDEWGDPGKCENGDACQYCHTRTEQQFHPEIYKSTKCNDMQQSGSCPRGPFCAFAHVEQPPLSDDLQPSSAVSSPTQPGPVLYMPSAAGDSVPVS
Strand | bound/input enrichment
CACGUGUCUGCAGUACUUGAUGUGGACUACUCUCCCACUGGGAAGGAAUUUGUGUCUGCCAGCUUUGAUAAGUCUAUUCGAAUCUUUCCUGUAGACAAGAGCCGAAGCAGGGAAGUGUAU | 0.281 ratio
UCUUUGUUUGUAACUUAUGUAAAAGGUUCCCCCCCCCUACUGUCAAAAAAUAUGCAUGUAUAGUAAUUAGGACUUCAUUCCUCCAUGUUUUCUUCCCUUAUCUUACUGUCAUUGUCCUUA | 2.49 ratio
UCUUUAAAAAAAAAAUUACCUUUUCUGACAGUGCUUUCCCUCCCAUAGGUCCAGGUUCAAGCUCAAAGAGCAAAGGCUUUGCACGGAGCUCAAACAUAAAAGAAAGAAAGAUUUCUGAGA | 0.433 ratio
UAAGUUAUUUUGUACAGCUUUGUAAAUUCUUAACAUUUUUAUAUUGCCAUGUUUAUUUUGUUUGGGUAAUUUGGUUCAUACAUGGCCUAGCUAAGGUAAUGAACAUCGUAAUUAUAGAUU | 0.821 ratio
UGACAAGGGCACUGCAGAGCCAUGCCUUUCCUUGACAUCCAGAAAAGGCUGGGCAUCAGCCUGGACCGGCACUUUAUAAUCCAGAGUGCAGAACAGCCCUAUAAGAACGCCGCUCGGUGC | 0.0697 ratio
UUAAUCCCCUUUACUGCUCCCCCACUUCUCAUGGUAAUGACAAAAACUUAUAUCCCCGUCCUAGCUUUCACUCAGAUGGCUUAUGGAGCCGGUUUCCUAUCUUUCUUGGGAGGGAUCAGA | 0.218 ratio
AGAGAAAUGAGAAAGAAUCUCACACAAGAUGAGAUGCAAAGAAUGUCUACUAGAGUCCUUUUGGCGACUCUUUCCAUUCCUAUUACUCCUGAGCGAACUGAUAUUGCUCGACUUUUGGAU | 0.0781 ratio
UCGGAUGAGGUGCUGGGUCACUUUUCAUAUCCAGAUCCUUCACAGUGGACAGAUGAAGAACUGGGAAUCCCUCCUGAUGACGAGGACUGACACUGUAGACUCAGCCUACGAGUAGGAGCA | 0.37 ratio
CAGUCCCCGUGUCCCAGUGCAGGACGAGAACAUGGACAACUCAAAGCGGACCCUCUAUUGUAGUUCUUUUUUUAAAUAAUGUGCUAUUAUUGUUUGUCUUUUUUUUUUUUUUUUUAAAGA | 2.95 ratio
CUGGCCUGGCCCUCCCCUCUAGUGACCUUUCGUAUAGUCACUGCUUCUGCAUCAGAUACUUUCAGCUGCAACUCCCUACUGGGUGGGGCACCCAUUUCAGGCAGAAGGUUUUGGUACCCU | 0.391 ratio
UUAUCCAAGACUCAACGAAAGACUCCAACCGUUAUUCAUAAACAUUAUCAAAUUCAUCGGAUUCGACAUUUUUAUAUGAGAAAAGUCAAAUUUACUCAACAGAAUUACCAUGACAGACUG | 0.385 ratio

Excerpt of the above (sample 1):
Strand | E-score
ACTTAATG | -0.0728
GGAATGGA | 0.0326
CATTGTAA | -0.0815
CAGCGGGA | 0.236
AGCTAATG | -0.188
GCTCTGAC | -0.0103
CCACAGAG | -0.273
TTAAGCAA | -0.00468
CAGTGAAG | -0.0644
CGTGAGAG | 0.00686
CCGATAAC | 0.121
TCACAACA | 0.101
